Measured values gathered from unrelated publications.
Parts stem from different laboratories: compare values within a part only.

Block 1
Target: Prothrombin, mature alpha-thrombin (F2, Homo sapiens, UniProt P00734)
Technique: aptamer microarray, sandwich
Form: DNA with 2'F-ANA
Sample: in vitro
Tested at: 200 nM
Setting: whole 15-mer aptamer, many near background
Together with: Cy3 exosite-II aptamer, 400 nM
Direction: higher = stronger binding
Oligonucleotide: GGTTGGTGTGGTTGG
Under “mean fluorescence intensity”, `2'F-ANA at 2 3 5 6 7 9 10 11 13` is recorded as 51.5 a.u.
For `2'F-ANA at 1 3 4 5 7 8 11 12 14`, “mean fluorescence intensity” read 60.9 a.u.
For `2'F-ANA at 2 3 6 8 9 12 14 15`, “mean fluorescence intensity” read 386 a.u.
For `2'F-ANA at 4 6 9 10 13 14 15`, “mean fluorescence intensity” read 59.5 a.u.
`2'F-ANA at 2 4 7 8 10 11 12 13 15` — result for “mean fluorescence intensity”: 142 a.u.
`2'F-ANA at 1 6 10 13 14`: “mean fluorescence intensity” 49 a.u.

Block 2
Target: Ras GTPase-activating protein-binding protein 1, full length (G3BP1, Homo sapiens, UniProt Q13283)
UniProt Q13283, sequence (whole entry, looked up): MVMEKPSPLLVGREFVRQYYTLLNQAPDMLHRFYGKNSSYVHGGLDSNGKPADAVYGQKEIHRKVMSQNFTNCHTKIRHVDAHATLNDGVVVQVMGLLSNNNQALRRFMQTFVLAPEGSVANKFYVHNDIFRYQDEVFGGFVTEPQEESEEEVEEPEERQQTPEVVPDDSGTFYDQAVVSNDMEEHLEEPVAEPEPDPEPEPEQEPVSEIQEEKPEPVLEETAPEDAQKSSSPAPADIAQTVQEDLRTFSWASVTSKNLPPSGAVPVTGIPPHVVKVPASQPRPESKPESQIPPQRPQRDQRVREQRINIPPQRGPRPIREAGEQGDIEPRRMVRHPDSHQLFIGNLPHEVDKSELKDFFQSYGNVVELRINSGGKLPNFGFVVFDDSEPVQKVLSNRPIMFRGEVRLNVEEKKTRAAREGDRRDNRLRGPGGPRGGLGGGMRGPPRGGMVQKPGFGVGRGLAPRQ
Technique: RNA Bind-n-Seq
Form: RNA
Sample: in vitro
Tested at: 200 nM
Setting: whole 134-nt RNA, ends assumed
Together with: 150 mM LiCl
Baseline: input library
Direction: higher = stronger binding
All molecules: 7-deaza-guanosine replaces G
`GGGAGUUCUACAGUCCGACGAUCCCUCAAGUCCUGUGCUACACAUCGUAUGUACCGAAUCGGCCGGGCCGGGCCGGAAAGUAUUAUGUUACGCCGUUCGGAUCUGCACUUCCAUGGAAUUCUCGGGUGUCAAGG` has a log2 enrichment of 0.153.
With `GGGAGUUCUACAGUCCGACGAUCUCAAGUCCUGUGCUACACAUCGUAUGUACCGAAUCGGGUUUGGGUUUGGUUUGGGAAAGUAUUAUGUUACGCCGUUCGGAUCUGCACUUCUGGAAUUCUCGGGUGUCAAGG` the log2 enrichment was -0.675.
`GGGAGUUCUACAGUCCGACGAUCGUCCUGUGCUACACAUCGUAUGUACCGAAUCGGGGAAAAAGGGGAAAAAGGAAAAAGGGAAAGUAUUAUGUUACGCCGUUCGGAUCUGCAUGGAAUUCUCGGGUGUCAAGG` gave a log2 enrichment of 0.0646.
`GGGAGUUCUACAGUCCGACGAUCGCAGGAAGUAAAAACAAAUGGAAAUGCUUCGGAUAGUGGCAGGGGUGGGGGUUGCUAAGGAAAGGGUGGGAUGGGAGUAGGUAAAGAGUUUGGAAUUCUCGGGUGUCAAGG` has a log2 enrichment of 0.151.
`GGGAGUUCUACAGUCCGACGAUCUGGGAGGUGGAUUUUGUUUAUUUUUUUAGCUCAUUUCCAGGGGUGGGAAUUUUUUUUUAAUAUGUGUCAUGAAUAAAGUUGUGUUUGAAAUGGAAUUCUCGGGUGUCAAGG` gave a log2 enrichment of 0.195.
For `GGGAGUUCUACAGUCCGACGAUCGUAGCUGCUCCAGUGGGCCCAGUGGGCCCCACUCCUACAGUUUUGCCCAUGGGAGCCCCUGUUCCCCGGCCUCGUGGUCCCCCACCGCCCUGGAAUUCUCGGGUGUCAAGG`, the log2 enrichment was 0.246.

Block 3
Target: Sal-like protein 4, full length isoform B (SALL4, Homo sapiens, UniProt Q9UJQ4-2, residues 1-616)
Technique: universal PBM
Form: double-stranded DNA, one strand shown
Sample: in vitro
Tested at: not given
Setting: 8-mer, flanks averaged, mean of replicates
Direction: higher = stronger binding
With `GAACTCAC` the E-score was -0.0177.
`AAGCTACG` has an E-score of -0.0464.
For `CCTAAACC`, the E-score was -0.0375.

Mixed results
For `PhoQ, residues 284 288 289 292 302 303 ASASEQ`, the fold induction was 0.922 (PhoP, residues 12 14 15 18 19 FWNTL (Escherichia coli, UniProt P23836); Sort-seq, item: YFP reporter; E. coli; PhoQ-PhoP variant library, together with: 10 µM Mg2+; baseline: high Mg2+ state, higher = stronger signaling).

Repeated from above (block 1):
For `2'F-ANA at 4 6 9 10 13 14 15`, “mean fluorescence intensity” read 59.5 a.u.
